Measured values from different studies.
Protocols differ between the studies behind these lines. ± marks the error that the study gave.
Organism: Klebsiella pneumoniae

`COc1ccc2ccc3c(c2c1)C=[N+]1C2CCCCC2[N+]2=Cc4ccc(-c5ccccc5)cc4[O][Au-]21[O]3.F[P-](F)(F)(F)(F)F` (stereo not shown) has an MIC of > 20 µM (bacterial growth, broth microdilution; carbapenem-resistant; 24 h).
For `c1ccc(CN2CCOCCOCCN(CCCCCCCCCCCCCCN3CCOCCOCCN(CCCCCCCCCCCCCCN4CCOCCOCCN(Cc5ccccc5)CCOCCOCC4)CCOCCOCC3)CCOCCOCC2)cc1`, the MIC was 24 µM (KPC-2).
The MIC of `COc1ccc2ccc3c(c2c1)C=[N+]1C2CCCCC2[N+]2=Cc4ccc(C)cc4[O][Au-]21[O]3.F[P-](F)(F)(F)(F)F` (stereo not shown) is reported as > 20 µM (bacterial growth, broth microdilution; carbapenem-resistant; 24 h).
The MIC of `CC(C)C[C@H](NC(=O)[C@H](Cc1ccc(O)cc1)NC(=O)[C@@H]1CCCN1C(=O)[C@H](CCCNC(=N)N)NC(=O)[C@@H]1CCCN1C(=O)[C@H](CCCCN)NC(=O)[C@H](CC(=O)O)NC(=O)[C@@H]1CCCN1C(=O)[C@H](CCCNC(=N)N)NC(=O)C1(N)CCCCC1)C(=O)N1CCC[C@H]1C(=O)N[C@@H](CCCNC(=N)N)C(=O)N1CCC[C@H]1C(=O)N[C@@H](CCCNC(=N)N)C(=O)N1CCC[C@H]1C(=O)N1CCC[C@H]1C(=O)N[C@@H](CCCNC(=N)N)C(=O)N1CCC[C@H]1C(=O)N[C@H](C(=O)N[C@@H](CCCNC(=N)N)C(=O)N[C@@H](CSc1c(F)c(F)c(-c2c(F)c(F)c(SC[C@H](NC(=O)[C@H](CCCNC(=N)N)NC(=O)[C@@H](NC(=O)[C@@H]3CCCN3C(=O)[C@H](CCCNC(=N)N)NC(=O)[C@@H]3CCCN3C(=O)[C@@H]3CCCN3C(=O)[C@H](CCCNC(=N)N)NC(=O)[C@@H]3CCCN3C(=O)[C@H](CCCNC(=N)N)NC(=O)[C@@H]3CCCN3C(=O)[C@H](CC(C)C)NC(=O)[C@H](Cc3ccc(O)cc3)NC(=O)[C@@H]3CCCN3C(=O)[C@H](CCCNC(=N)N)NC(=O)[C@@H]3CCCN3C(=O)[C@H](CCCCN)NC(=O)[C@H](CC(=O)O)NC(=O)[C@@H]3CCCN3C(=O)[C@H](CCCNC(=N)N)NC(=O)C3(N)CCCCC3)C(C)C)C(=O)NN)c(F)c2F)c(F)c1F)C(=O)NN)C(C)C` is reported as 2.8 ± 0.9 µg/mL (bacterial growth; ATCC 13883, 100% Mueller-Hinton broth; 90 min, 37 °C, strain ATCC 13883).
`CC[C@H](C)CCCCC(=O)N[C@@H](CCN)C(=O)N[C@H](C(=O)N[C@H](CO)C(=O)N[C@H]1CCNC(=O)[C@H](CC(C)C)NC(=O)[C@H](CCN)NC(=O)[C@H](CCN)NC(=O)[C@H]([C@@H](C)CC)NC(=O)[C@@H](CC(C)C)NC(=O)[C@H](CCN)NC1=O)[C@@H](C)O` gave an MIC of 2 µg/mL (0497, mcr-1).
The MIC of `NCCCC[C@@H]1NC(=O)[C@@H](Cc2c[nH]c3ccccc23)NC(=O)[C@H](Cc2c[nH]c3ccccc23)NC(=O)[C@@H](N)CSCc2ccc(cc2)CSC[C@@H](C(N)=O)NC(=O)[C@@H](Cc2c[nH]c3ccccc23)NC(=O)[C@H](Cc2c[nH]c3ccccc23)NC(=O)[C@@H](Cc2c[nH]c3ccccc23)NC(=O)[C@H](CCCCN)NC(=O)[C@@H](CCCCN)NC(=O)[C@H](CCCCN)NC(=O)[C@@H](CCCCN)NC1=O` is reported as > 64 µg/mL.
For `CC(C)[C@H](NC(=O)[C@H](CCCCN)NC(=O)[C@H](CCCNC(=N)N)NC(=O)[C@@H](NC(=O)[C@H](C)NC(=O)[C@H](CC(N)=O)NC(=O)[C@H](CCCNC(=N)N)NC(=O)[C@@H](NC(=O)[C@H](CCCCN)NC(=O)[C@H](CCCCN)NC(=O)[C@@H](NC(=O)[C@@H](NC(=O)[C@H](CCCNC(=N)N)NC(=O)[C@H](CCCNC(=N)N)NC(=O)[C@H](Cc1c[nH]c2ccccc12)NC(=O)[C@H](Cc1c[nH]c2ccccc12)NC(=O)CN)[C@@H](C)O)C(C)C)C(C)C)C(C)C)C(=O)O`, the MIC was 64 µg/mL (clinical strain; 18 h, 37 °C).
The MIC of `C[C@@](O)(C(F)F)[C@H](NC(=O)c1ccc(C#CC#CC2CC2)cc1)C(=O)NO` is reported as 0.0026 µg/mL (broth microdilution; 10031, CAMHB).
`CC[C@@H](C)[C@@H](NC(=O)[C@@H](C)NC(=O)[C@H](NC(=O)[C@@H](CC(=O)O)NC(=O)[C@@H](CCCCN)NC(=O)[C@@H](CO)NC(=O)[C@H](NC(=O)[C@@H](CC(N)=O)NC(=O)[C@@H](C)NC(=O)[C@H](NC(=O)[C@@H](CCC(=O)O)NC(=O)[C@@H](CCCCN)NC(=O)[C@H](NC(=O)[C@H](NC(=O)[C@@H](Cc1c[nH]cn1)NC(=O)[C@@H](CCCCN)NC(=O)[C@H](NC(=O)[C@@H](CCCCN)NC(=O)[C@@H](CCCCN)NC(=O)[C@H](NC(=O)[C@@H](CC(C)C)NC(=O)[C@@H](CCCCN)NC(=O)[C@@H](CC(N)=O)NC(=O)[C@@H](Cc1ccccc1)NC(=O)[C@@H](CCCNC(=N)N)NC(=O)[C@@H](CCCCN)NC(=O)[C@@H](CCCNC(=N)N)NC(=O)[C@@H](Cc1ccccc1)NC(=O)CN)C(C)C)C(C)C)[C@H](C)O)[C@H](C)CC)[C@H](C)O)C(C)C)C(C)C)C(=O)N[C@@H](C(=O)N[C@H](C)C(=O)NCC(=O)N[C@H](CO)C(=O)NCC(=O)N[C@@H](C(=O)N[C@H](C)C(=O)N[C@@H](C(=O)NCC(=O)N[C@H](C)C(=O)N[C@H](C)C(=O)N[C@H](CCSC)C(N)=O)C(C)C)C(C)C)C(C)C` has an MIC of 16 µg/mL (broth microdilution; DSM 30104, CAMHB).
`COc1ccc2ccc3c(c2c1)C=[N+]1C2CCCCC2[N+]2=Cc4ccc(OCCN5CCCCC5)cc4[O][Au-]21[O]3.F[P-](F)(F)(F)(F)F` (stereo not shown) has an MIC of 10 µM (bacterial growth, broth microdilution; carbapenem-resistant clinical isolate; 24 h).
`CN1/C(=C/C=C/c2cc(-c3ccccc3)cc(-c3ccccc3)[o+]2)C(C)(C)c2ccccc21` gave an MIC of 16 µg/mL (broth dilution; NR-15411, KPC).
The MIC of `CC[C@H](C)[C@H](NC(=O)[C@H](CC(=O)O)NC(=O)[C@H](Cc1ccccc1)NC(=O)[C@H](CC(C)C)NC(=O)CN)C(=O)N[C@H](C(=O)N[C@@H](CCCCN)C(=O)N[C@@H](CCCCN)C(=O)N[C@H](C(=O)N[C@@H](CC(C)C)C(=O)N[C@@H](CCCCN)C(=O)N[C@@H](CC(C)C)C(=O)N[C@@H](CC(C)C)C(=O)N[C@@H](CCCCN)C(N)=O)C(C)C)C(C)C` is reported as > 20 µM (ATCC 700603, CAMHB; 18 h, 37 °C).
With `COc1ccc2ccc3c(c2c1)C=[N+]1C2CCCCC2[N+]2=Cc4cc(C)ccc4[O][Au-]21[O]3.F[P-](F)(F)(F)(F)F` (stereo not shown) the MIC was > 20 µM (bacterial growth, broth microdilution; carbapenem-resistant clinical isolate; 24 h).
